Experimental data pooled from the literature.
Lines come from different studies, so protocols differ. ± gives the spread as reported.

Structure (SMILES) | test | system | setting | quantity | value
C[C@@H](Nc1cc(F)cc(F)c1)c1cc(C(=O)N(C)C)cc2c(=O)cc(N3CCOCC3)oc12 |  | human, plasma | oral, 120 mg, day 1 single dose | t1/2 geometric mean | 4.45 h
COc1ccc([C@@H](O)c2cc(-c3ncnc4cc(N5CCOCC5)ccc34)c(F)cc2Cl)nn1 |  | human, plasma | oral, 250 mg capecitabine, single dose, day 1 | t1/2 | 5.14 h
NC(=S)NN=Cc1ncccc1N |  | human, plasma | intravenous, 50 mg, geometric mean | t1/2 | 1.3 h
Cl.[2H]C([2H])([2H])CC(=O)c1cnc(NC(=O)C2CC2)cc1Nc1cccc(-c2ncn(C([2H])([2H])[2H])n2)c1OC |  | human, fasted, plasma | oral, 25 mg, single dose, liquid formulation | t1/2 | 7.6 h
N#CCC1CCN(c2nc(Nc3ccc(N4CCC(O)CC4)cc3)c3c(=O)[nH]ncc3n2)CC1 |  | human, plasma | oral, 80 mg once daily, day 15 | t1/2 | 14.1 h
CC(=O)Oc1ccccc1C(=O)O |  | human, both sexes, plasma | oral, 650 mg, geometric mean, added: alcohol | t1/2 | 0.57 h
CCCOc1ccc(NC(=O)CN2CCN(C)CC2)cc1-c1nc(CC)c(CC)c(=O)[nH]1 |  | human, fasting, plasma | oral, 10 mg, added: alcohol 0.5 g/kg | t1/2 | 9.43 ± 2.06 h
FC(F)(F)c1ccc(CNc2ccc(Cc3c[nH]c4ncc(Cl)cc34)cn2)cn1 | measured: total radioactivity | healthy human male, whole blood | oral, 400 mg [14C]-labelled | t1/2 | 42.3 h
CC[C@H](Nc1ncnc2[nH]cnc12)c1oc2ccccc2c(=O)c1-c1cccc(F)c1 |  | human, plasma | oral, 800 mg twice daily, added: romidepsin 14 mg/m2 | t1/2 | 21 ± 24.2 h
C[C@H]1CNCCCN1S(=O)(=O)c1cccc2cncc(F)c12 |  | human, male, plasma | ocular instillation, 1 drop per eye twice daily, day 8 | t1/2 | 0.25 h
Cc1cc(C)c(CNC(=O)c2cc(Cl)c3c(c2C)O[C@@](C)([C@H]2CC[C@H](N(C)C)CC2)O3)c(=O)[nH]1 | measured: total radioactivity | human, male, plasma | oral, 200 mg, [14C]-labelled, mean | t1/2 | 17.2 h

Some of these lines once more:
Structure (SMILES) | test | system | setting | quantity | value
C[C@@H](Nc1cc(F)cc(F)c1)c1cc(C(=O)N(C)C)cc2c(=O)cc(N3CCOCC3)oc12 |  | human, plasma | oral, 120 mg, day 1 single dose | t1/2 geometric mean | 4.45 h
